Published values gathered from unrelated publications.
Each line is one published result; not all experiments were run side by side.
Organism: Escherichia coli

| SMILES | test | system | conditions | MIC |
| --- | --- | --- | --- | --- |
| CO[C@H]1/C=C/O[C@@]2(C)Oc3c(C)c(O)c4c(c3C2=O)C2=NC3(CCN(CC(C)C)CC3)NC2=C(NC(=O)/C(C)=C\C=C\[C@H](C)[C@H](O)[C@@H](C)[C@@H](O)[C@@H](C)[C@H](OC(C)=O)[C@@H]1C)C4=O |  | ATCC 25922 |  | 5 µM |
| N=C(N)c1ccccc1OCc1cccc(COc2ccccc2C(=N)N)c1 |  | BW25113 | compound alone, rifampicin checkerboard | > 200 µg/mL |
| CO/N=C(\C(=O)N[C@@H]1C(=O)N2C(C(=O)O)=C(CSc3nc(=O)c(O)nn3C)CS[C@H]12)c1csc(N)n1 | broth microdilution | G92 | 18 h | 128 µg/mL |
| Cc1c(CN(C)C(=O)/C=C/c2cnc3c(c2)CC(NC(=O)OC(C)(C)C)C(=O)N3)oc2ccccc12 (stereo not shown) | broth microdilution | AR-0114 |  | > 32 µg/mL |
| NCCCC[C@H](NC(=O)[C@H](Cc1ccccc1)NC(=O)[C@H](CCC(N)=O)NC(=O)[C@H](Cc1ccccc1)NC(=O)[C@H](CCC(N)=O)NC(=O)[C@@H](N)Cc1ccccc1)C(N)=O | broth microdilution, optical density |  |  | 1000 µM |
| C[C@@H](O)[C@H]1C(=O)N2C(C(=O)O)=C(S[C@@H]3CN[C@H](C(=O)N(C)C)C3)[C@H](C)[C@H]12 |  | 25922 |  | < 2 µg/mL |
| NC[C@H]1O[C@H](O[C@H]2[C@H](O)[C@@H](O[C@H]3O[C@H](CO)[C@@H](O)[C@H](N)[C@H]3O)[C@H](N)C[C@@H]2N)[C@H](N)C[C@@H]1O |  | ATCC 25922 |  | 2.5 µM |
| CC(C)(O/N=C(\C(=O)N[C@@H]1C(=O)N2C(C(=O)[O-])=C(C[N+]3(CCNC(=O)c4ccc(O)c(O)c4Cl)CCCC3)CS[C@H]12)c1csc(N)n1)C(=O)O |  | DSM 1116 |  | 0.1 µM |
| CO/N=C(\C(=O)N[C@@H]1C(=O)N2C(C(=O)O)=C(COC(C)=O)CS[C@H]12)c1csc(N)n1 |  | ATCC 25922, Mueller Hinton broth | 37 °C | < 0.5 µg/mL |
| CC[C@H]1OC(=O)C[C@@H](O)[C@H](C)[C@@H](O[C@@H]2O[C@H](C)[C@@H](O[C@H]3C[C@@](C)(O)[C@@H](O)[C@H](C)O3)[C@H](N(C)C)[C@H]2O)[C@@H](CC=O)C[C@@H](C)C(=O)/C=C/C(C)=C/[C@@H]1CO[C@@H]1O[C@H](C)[C@@H](O)[C@@H](OC)[C@H]1OC |  | ATCC 25922 |  | 320 µM |
| N=C(N)c1ccc(OCCCCCCCCCCCOc2ccc(C(=N)N)cc2)cc1 |  | BW25113 | compound alone, rifampicin checkerboard | > 25 µg/mL |
| CO[C@H]1/C=C/O[C@@]2(C)Oc3c(C)c(O)c4c(O)c(c(/C=N/N5CCN(C)CC5)c(O)c4c3C2=O)NC(=O)/C(C)=C\C=C\[C@H](C)[C@H](O)[C@@H](C)[C@@H](O)[C@@H](C)[C@H](OC(C)=O)[C@@H]1C | broth microdilution OD600 | Mueller-Hinton broth | 24 h, 37 °C, with: 150 mM NaCl | 8 µM |
| C[C@H]1COc2c(N3CCN(C)CC3)c(F)cc3c(=O)c(C(=O)O)cn1c23 |  | ATCC 25922 |  | 0.078 µM |
